Measured values of several laboratories.
Values joined by “and” are separate records of one study, mostly repeats; a detail may differ. Numbers after ± are the reported error. Positions of bridges follow the written chain, without caps; N, C: chain ends. No end group written: not given here.

O=C(CNS(=O)(=O)NCc1cccc(Oc2ccccc2)c1)N1CCN(Cc2ccccc2)CC1  TD50 (HG23 norovirus replicon cells; 48 h): 145 ± 20 µM
CN(CCCC(=O)O)N=O  ATP level (HepaRG 3D spheroids; cell viability; concentration not given, 24 h; relative to: vehicle): 81%
CC(C)[C@@H]1NC(=O)[C@H](C)OC(=O)[C@@H](C(C)C)NC(=O)[C@@H](C(C)C)OC(=O)[C@H](C(C)C)NC(=O)[C@H](C)OC(=O)[C@@H](C(C)C)NC(=O)[C@@H](C(C)C)OC(=O)[C@H](C(C)C)NC(=O)[C@H](C)OC(=O)[C@@H](C(C)C)NC(=O)[C@@H](C(C)C)OC1=O  point of departure (human iPSC-derived cardiomyocytes; mitochondrial membrane potential, measured: JC-10 granules; 30 min): < 30 µM
Cl.Cl.O=C(c1cc(F)cc(N2CCNCC2)c1)N1CCN(C(=O)c2ccc(O[C@H]3CCNC3)c(C3CCCCC3)c2)CC1  nonspecific binding (MDA-MB-231; trypsin-EDTA digestion vs solvent extraction; concentration not given, 6 h): 38%
CCC(CC)COC(=O)[C@H](C)N[P@](=O)(OC[C@H]1O[C@@](C#N)(c2ccc3c(N)ncnn23)[C@H](O)[C@@H]1O)Oc1ccccc1  IC50 (Vero E6; MTT): 43.1 ± 3.28 µM
CN[C@@](C)(C[18F])C(=O)O  tracer uptake (SK-OV-3 tumour model; host not given, liver; 30 min, tumour-bearing): 4 %ID/g
Nc1nc(O)c2ncn(COC(CO)CO)c2n1  minimum cytotoxic concentration (HEL embryonic lung fibroblasts; cell morphology, microscopy): 350 µM
CNC(=O)Oc1cccc2ccccc12  point of departure (human iPSC-derived cardiomyocytes; mitochondrial membrane potential, measured: JC-10 granules; 30 min): < 30 µM
CC[C@H](C)[C@H](NC(=O)[C@H](CCCNC(=N)N)NC(=O)[C@H](CC(C)C)NC(=O)[C@@H](NC(=O)[C@H](CO)NC(=O)[C@H](CC(C)C)NC(=O)[C@@H](NC(=O)[C@H](CCC(N)=O)NC(=O)[C@H](CO)NC(=O)[C@H](CC(C)C)NC(=O)[C@@H](N)Cc1ccccc1)[C@@H](C)CC)[C@@H](C)O)C(=O)N[C@@H](CC(C)C)C(=O)N[C@@H](CC(C)C)C(N)=O  HC50 (human red blood cells; hemolysis; 1 h, 37 °C): 150 µM
C=C(C[C@H](N)C(=O)O)C(=O)Nc1ccc(F)cc1  concentration increasing cytotoxicity (MDA-MB-231; 72 h; relative to: vehicle): 320 µM
CO[C@]1(CO)O[C@@H](n2ccc(N)nc2=O)C(F)(F)[C@@H]1O  minimum cytotoxic concentration (HEL embryonic lung fibroblasts; cell morphology, microscopy): > 100 µM
C=C(C[C@H](N)C(=O)O)C(=O)N1CCCCC1  concentration increasing cytotoxicity (MDA-MB-231; 72 h; relative to: vehicle): 10 µM
CC[C@H](C)[C@H](NC(=O)[C@@H](NC(=O)[C@H](CS)NC(=O)[C@H](C)NC(=O)[C@H](CCCNC(=N)N)NC(=O)[C@H](CCCNC(=N)N)NC(=O)[C@H](CC(N)=O)NC(=O)[C@H](CCCNC(=N)N)NC(=O)[C@H](C)NC(=O)[C@H](CS)NC(=O)[C@H](CC(C)C)NC(=O)[C@@H](NC(=O)[C@@H](NC(=O)[C@H](CS)NC(=O)[C@H](CCCCN)NC(=O)[C@@H](N)CCCNC(=N)N)C(C)C)[C@@H](C)CC)C(C)C)C(=O)N[C@@H](CC(C)C)C(=O)N[C@@H](CS)C(=O)N[C@@H](CCCNC(=N)N)C(=O)O  hemolysis (human red blood cells; 128 µg/mL, 3 h, 37 °C; relative to: Triton X-100): 3.54%
N#Cc1nn(-c2c(Cl)cc(C(F)(F)F)cc2Cl)c(N)c1[S+]([O-])C(F)(F)F (stereo not shown)  apoptotic cells ratio (Caco-2; Hoechst and PI staining; 25 µM, 48 h; relative to: untreated): 8.6
CCCN1C(N)=NC(N)=NC12CCN(S(=O)(=O)CCC)CC2  minimum cytotoxic concentration (MDCK; microscopy, altered cell morphology): > 100 µM
CN(N=O)c1ccccc1  ATP level (HepaRG 3D spheroids; cell viability; concentration not given, 24 h; relative to: vehicle): 89.9%
C/C=C(\C)C(=O)O[C@@H]1[C@@H](O)[C@@H]2O[C@H]3[C@H](O[C@@H](CCCCC)CCCCCCC(=O)CCC(=O)OC[C@@H](O2)[C@H]1OC(=O)/C=C/c1ccccc1)O[C@H](C)[C@H](OC(C)=O)[C@@H]3O  IC50 (MDA-MB-231; cytotoxicity): 0.0065 µM
CCCCC(CC)COP(=O)(Oc1ccccc1)Oc1ccccc1 (stereo not shown)  point of departure (human iPSC-derived cardiomyocytes; mitochondrial membrane potential, measured: JC-10 granules; 30 min): < 30 µM
O=C(Cc1ccccc1Nc1c(Cl)cccc1Cl)Oc1ccc(-c2cc(=S)ss2)cc1  IC50 (HepG2 and LS180; EROD activity, inhibitor; 24 h, averaged over cell lines, added: benzo[a]pyrene 1 µM): 50 µM
H-HGLASTLTRWAHYNALIRAFGGG-NH2 (C-amide)  internalized peptide (U-87 MG; fluorimetry; 5 µM, 2 h, serum-free): 80 to 90%
C[C@H](Cn1cnc2c(N)ncnc21)OCP(=O)(O)O  intracellular concentration (hCMEC/D3; 5 µM, 1 h): 0.32 ± 0.08 ng/mL
C=C(C[C@H](N)C(=O)O)C(=O)Nc1ccccc1  concentration increasing cytotoxicity (MDA-MB-231; 72 h; relative to: vehicle): 100 µM
CN(CC(=O)NCCN1CCOCC1)S(=O)(=O)NCc1cccc(Oc2ccccc2)c1.Cl  TD50 (HG23 norovirus replicon cells; 48 h): 235 ± 45 µM
Cc1[nH]ccc2c1[nH]c1cc(=O)ccc12  lowest cytotoxic concentration (U87 cells; nuclear area and membrane integrity, high content imaging; 72 h): > 10 µM
C[C@@H]1CCO[C@H]2Cn3cc(C(=O)NCc4ccc(F)cc4F)c(=O)c(O)c3C(=O)N12  intracellular accumulation (hCMEC/D3; 10 µM, 1 h, 37 °C, 3-drug cART combination): 267 ± 41 pmol/mg protein
Cn1c(C(=O)Nc2ccc(Cl)cc2)cc2c(=O)n3ccccc3nc21  IC50 (Vero E6; MTT): 193 ± 14.7 µM
CC[C@H](C)[C@H](NC(=O)[C@H](CCCNC(=N)N)NC(=O)[C@@H](NC(=O)[C@H](CO)NC(=O)[C@@H](NC(=O)[C@H](CCC(N)=O)NC(=O)[C@H](CS)NC(=O)[C@H](CCCCN)NC(=O)[C@@H](N)CCCNC(=N)N)[C@@H](C)CC)C(C)C)C(=O)N[C@@H](CCCNC(=N)N)C(=O)N[C@@H](CC(N)=O)C(=O)N[C@@H](CCCNC(=N)N)C(=O)N[C@@H](CCCNC(=N)N)C(=O)N[C@@H](C)C(=O)N[C@@H](CC(N)=O)C(=O)N[C@H](C(=O)N[C@@H](CCCCN)C(=O)N[C@H](C(=O)N[C@@H](CO)C(=O)N[C@@H](CS)C(=O)N[C@@H](CC(N)=O)C(=O)O)[C@@H](C)CC)[C@@H](C)CC  hemolysis (human red blood cells; 128 µg/mL, 3 h, 37 °C; relative to: Triton X-100): -0.11%
CCCCN(CCCC)N=O  lowest effective concentration (HepaRG 3D spheroids; DNA damage, measured: % tail DNA; 24 h; relative to: vehicle): 125 µM
COc1ccc2c(c1)[nH]c1c(C)nccc12  viability (Caco-2; MTT; range over 10 to 100 µg/mL, 24 h): ~100%
CCCCN(CCCC)N=O  remaining compound (TK6; UPLC-MS/MS; medium with Aroclor-induced rat or hamster S9; 12.5 µM, 24 h; relative to: medium without cells): < 0.5%
CCOP(=S)(OCC)Oc1ccc([N+](=O)[O-])cc1  point of departure (human iPSC-derived cardiomyocytes; mitochondrial membrane potential, measured: JC-10 granules; 30 min): < 30 µM
O=Cc1cc(Cn2cc(F)c(=O)[nH]c2=O)ccc1O  minimum cytotoxic concentration (HEL fibroblasts; cell morphology alteration): > 100 µM
CC(=O)OC[C@H]1O[C@@H](NC(=O)NC(=O)COc2ccc(-c3ccccc3)cc2)[C@H](OC(C)=O)[C@@H](OC(C)=O)[C@@H]1OC(C)=O  minimal cytotoxic concentration (HEL fibroblasts; cell morphology; 3 days): > 100 µM
Cc1cc(NC(=O)c2cc3c(=O)n4cccc(C)c4nc3n2C)ccc1Br  IC50 (Vero E6; MTT): 139 ± 10.6 µM
O=NN1CCN(C2CCCC2)CC1  ATP level (HepaRG 3D spheroids; cell viability; concentration not given, 24 h; relative to: vehicle): 86.4%
CC(=O)O[C@@]12CO[C@@H]1C[C@H](O)[C@@]1(C)C(=O)[C@H](OC(=O)C3CC3)C3=C(C)[C@@H](OC(=O)[C@H](O)[C@H](C=C(C)C)NC(=O)OC(C)(C)C)C[C@@](O)([C@@H](OC(=O)c4ccccc4)[C@H]21)C3(C)C  IC50 (WI-38; MTT; 72 h, no GSH-OEt added): 0.0107 µM
N[C@@H](Cn1oc(=O)[nH]c1=O)C(=O)O  EC50 and Emax (rat cerebellar granule cells; PI hydrolysis; 24 h, culture-conditioned medium; relative to: freshly prepared): no effect
Nc1nc(O)c2ncn(COC(CO)CO)c2n1  minimum cytotoxic concentration (HEL fibroblasts; cell morphology, microscopy): > 394 µM
C=C(C[C@H](N)C(=O)O)C(=O)NCc1ccc(F)cc1  concentration increasing cytotoxicity (MDA-MB-231; 72 h; relative to: vehicle): 320 µM
C[C@H]1CNCCc2ccc(Cl)cc21  plasma concentration (Sprague-Dawley rat, male, plasma; subcutaneous, 3 mg/kg, 60 min): 63.5 ± 4.38 ng/mL
COc1cccc2c1C(=O)c1c(O)c3c(c(O)c1C2=O)C[C@@](O)(C(=O)CO)C[C@@H]3O[C@H]1C[C@H](N)[C@H](O)[C@H](C)O1  cellular uptake (HCT-8; flow cytometry, measured: positive cells; 10 µg/mL, 4 h, 10% FBS): 57.8%
COCCN1C(N)=NC(N)=NC12CCN(C(=O)NC1CCC(C)CC1)CC2 (stereo not shown)  minimum cytotoxic concentration (MDCK; microscopy, altered cell morphology): > 100 µM
CN(C)N=O  ATP level (HepaRG 3D spheroids; cell viability; concentration not given, 24 h; relative to: vehicle): 98.8%
C=C(C)[C@]12C[C@@H](COC(C)=O)[C@@]34O[C@]5(O[C@@H]1[C@@H]3[C@@H]1O[C@]1(CO)[C@@H](O)[C@@]1(O)[C@H]4[C@H]([C@H](C)[C@@H]1OC(=O)c1ccccc1)[C@H](C)CCCCCC[C@H]5O)O2  IC50 (MT4; cell growth or viability, ATP luminescence): 4.3 µM
CC(C)N(N=O)C(C)C  lowest effective concentration (HepaRG 3D spheroids; DNA damage, measured: % tail DNA; 24 h; relative to: vehicle): 5000 µM
COc1cc2c(c(OC)c1OC)-c1c(cc3c(c1OC)OCO3)CC(C)C(C)C2 (stereo not shown)  LD50 (HepG2; LDH release; 48 h, added: 1-aminobenzotriazole 0.5 mM): 200 µM and > 200 µM
COc1cccc(N2C(N)=NC(N)=NC23CCN(C(=O)c2ccc(C(F)(F)F)cc2C)CC3)c1  minimum cytotoxic concentration (MDCK; microscopy, altered cell morphology): > 100 µM
CGLIIQKNEC (disulfide 1-10 (inferred)) (cyclic, disulfide)  cytotoxicity (tumour cell line panel; LDH release; 75 µg/mL, 24 h, 2% serum): toxic
CCN(CC)N=O  ATP level (HepaRG 3D spheroids; cell viability; concentration not given, 24 h; relative to: vehicle): 89.6%

A few entries again:
C=C(C[C@H](N)C(=O)O)C(=O)Nc1ccccc1  concentration increasing cytotoxicity (MDA-MB-231; 72 h; relative to: vehicle): 100 µM
CN(CC(=O)NCCN1CCOCC1)S(=O)(=O)NCc1cccc(Oc2ccccc2)c1.Cl  TD50 (HG23 norovirus replicon cells; 48 h): 235 ± 45 µM
Cc1[nH]ccc2c1[nH]c1cc(=O)ccc12  lowest cytotoxic concentration (U87 cells; nuclear area and membrane integrity, high content imaging; 72 h): > 10 µM
C[C@@H]1CCO[C@H]2Cn3cc(C(=O)NCc4ccc(F)cc4F)c(=O)c(O)c3C(=O)N12  intracellular accumulation (hCMEC/D3; 10 µM, 1 h, 37 °C, 3-drug cART combination): 267 ± 41 pmol/mg protein
Cn1c(C(=O)Nc2ccc(Cl)cc2)cc2c(=O)n3ccccc3nc21  IC50 (Vero E6; MTT): 193 ± 14.7 µM
